Assay results pooled from the literature.
Protocols differ between the studies behind these lines. Values joined by “and” are separate records of one study, mostly repeats; a detail may differ. ± marks the error that the study gave.

C[C@@H](Oc1ccc2c(c1)[C@H]1CCN[C@@]1(C)CO2)c1ccccc1
permeability (Pe) (lipid PAMPA; PBS; 10 µM, 16 h, pH 7.4, 25 °C): 2 ×10⁻⁶ cm/s

Cc1ccc(N2CC3CCC(C2)N3C)cc1C(=O)N[C@H](C)c1cc(-c2cnn(C)c2)nc2ccccc12
unbound fraction (mouse, plasma): 5.8% and 5.5%

O=C1NC2(CC2)COc2ncc(F)cc2[C@H]2COCCN2c2ccn3ncc1c3n2
organ-to-brain weight ratio (Sprague-Dawley rat, female, uterus; oral, 20 mg/kg/day, 4 weeks, end of treatment): 25.8 ± 5.68%

CC(C)C[C@H](NC(=O)[C@H](Cc1ccc(O)cc1)NC(=O)CNC(=O)CNC(=O)CNC(=O)[C@H](Cc1c[nH]cn1)NC(=O)[C@H](Cc1c[nH]cn1)NC(=O)[C@@H](NC(=O)CNC(=O)[C@H](Cc1c[nH]cn1)NC(=O)[C@H](Cc1ccccc1)NC(=O)[C@H](CC(C)C)NC(=O)[C@H](CC(C)C)NC(=O)[C@H](CCCNC(=N)N)NC(=O)[C@H](Cc1ccccc1)NC(=O)[C@@H](N)Cc1ccccc1)C(C)C)C(=O)N[C@@H](CC(N)=O)C(=O)N[C@@H](C)C(=O)N[C@@H](C)C(N)=O
chronic toxic concentration (zebrafish embryos 4 hpf, E3 medium; 24 h): 25 µM

CSCC[C@H](NC(=O)CNC(=O)[C@H](CCCCN)NC(=O)[C@H](CC(C)C)NC(=O)[C@@H]1CCCN1C(=O)[C@H](CO)NC(=O)[C@H](Cc1c[nH]cn1)NC(=O)[C@H](Cc1c[nH]c2ccccc12)NC(=O)[C@H](CCCNC(=N)N)NC(=O)[C@H](CC(C)C)NC(=O)[C@H](CCCNC(=N)N)NC(=O)[C@H](Cc1c[nH]c2ccccc12)NC(=O)[C@H](CS)NC(=O)CCCCCNC(=O)CN1CCN(CC(=O)O)CCN(CC(=O)O)CCN(CC(=O)O)CC1)C(=O)O [copper-64 labelled]
tissue uptake (ex vivo biodistribution; male C57BL/6J mice, pancreas; intravenous, 1.85 MBq, 30 h, B16-F10 tumour-bearing): 1.18 %ID/g

CC1(C)C(=O)N(c2ccc(C#N)c(C(F)(F)F)c2)C(=S)N1c1ccc(C(N)=O)c(F)c1
AUC(0-inf) (human, male, plasma; oral, 160 mg, single dose, fasting): 274 ± 44.8 µg·h/mL

COc1cnc2cccc(N3CCc4c(cc(Cn5ccnc5)cc4-c4cn(C)nc4C(F)(F)F)C3=O)c2c1
body weight (BALB/c nude mice, MV4-11 xenograft; intraperitoneal, 100 mg/kg, day 35): 24.4 g and 22.3 g and 24.1 g and 22.4 g and 23.4 g

CCCCCCCCCCCCCCCC(=O)N[C@@H](CCC(=O)NCCOCCOCCC(=O)NCCOCCOCCC(=O)NCCCC[C@H](NC(=O)[C@H](CC(=O)O)NC(=O)[C@H](CC(C)C)NC(=O)[C@H](Cc1ccc(O)cc1)NC(=O)[C@H](CCCCN)NC(=O)[C@H](CO)NC(=O)[C@H](Cc1ccc(O)cc1)NC(=O)[C@H](CC(=O)O)NC(=O)[C@H](CO)NC(=O)[C@@H](NC(=O)[C@H](Cc1ccccc1)NC(=O)[C@@H](NC(=O)CNC(=O)[C@H](CCC(N)=O)NC(=O)[C@@H](CO)NC(=O)[C@@H](N)Cc1c[nH]cn1)[C@@H](C)O)[C@@H](C)O)C(=O)N[C@@H](CCCNC(=N)N)C(=O)N[C@@H](CCCNC(=N)N)C(=O)N[C@@H](C)C(=O)N[C@@H](CCC(N)=O)C(=O)N[C@@H](CC(=O)O)C(=O)N[C@@H](Cc1ccccc1)C(=O)N[C@H](C(=O)N[C@@H](CCC(N)=O)C(=O)N[C@@H](Cc1c[nH]c2ccccc12)C(=O)N[C@@H](CC(C)C)C(=O)N[C@@H](CC(C)C)C(=O)N[C@@H](CC(N)=O)C(=O)N[C@H](C(=O)NCC(=O)NCC(=O)N1CCC[C@H]1C(=O)N[C@@H](CO)C(=O)N[C@@H](CO)C(=O)NCC(=O)N[C@@H](C)C(=O)N1CCC[C@H]1C(=O)N1CCC[C@H]1C(=O)N1CCC[C@H]1C(=O)N[C@@H](CO)C(N)=O)[C@@H](C)O)C(C)C)C(=O)O
Cmax (rhesus monkey, plasma; subcutaneous, 20 µg/kg, single dose): 12 ng/mL

N#[11C]c1ccc(-c2csc(NN=C3CCCC3)n2)cc1
uptake in adrenal gland (C57BL/6 mouse, male; intravenous, 3 MBq, 1 min): 15.6 ± 7.51 %ID/g

CC(=O)NCCCC[C@@H]1NC(=O)[C@H](Cc2c[nH]c3c(C)cccc23)NC(=O)[C@H]([C@@H](C)O)NC(=O)[C@H](CC(N)=O)NC(=O)[C@@H](NC(C)=O)C(C)(C)SSC(C)(C)[C@@H](C(=O)N[C@@H](Cc2ccc(OCCN)cc2)C(=O)N[C@@H](Cc2ccc3ccccc3c2)C(=O)NC2(C(=O)N[C@@H](CCC(=O)O)C(=O)N[C@@H](CC(N)=O)C(=O)N[C@@H](Cc3cccnc3)C(=O)N(C)CC(N)=O)CCOCC2)NC1=O
unbound fraction (equilibrium dialysis; albumin plus glycoprotein; 0.1 µM, albumin 4%, glycoprotein 0.07%): 74.2 ± 3.2%

Cc1ccccc1-c1ccc(-c2nc(-c3ccc(CN(C)CCCC(=O)O)c([18F])c3)no2)cc1C(F)(F)F
tracer uptake (rat, lung; 30 min): 0.61 %ID/g

CC[C@H](C)[C@H](NC(=O)[C@H](CCCCN)NC(=O)CNC(=O)[C@H](CC(C)C)NC(=O)[C@H](Cc1ccccc1)NC(=O)[C@H](CCCCN)NC(=O)[C@H](CO)NC(=O)[C@H](Cc1ccccc1)NC(=O)[C@H](Cc1c[nH]c2ccccc12)NC(=O)[C@H](CCC(N)=O)NC(=O)[C@@H](NC(=O)[C@H](Cc1ccccc1)NC(=O)CCCCCNC(=O)CN1CCN(CC(=O)O)CCN(CC(=O)O)CCN(CC(=O)O)CC1)C(C)C)C(=O)N[C@@H](CCC(=O)O)C(=O)N1CCC[C@H]1C(=O)N[C@@H](CC(=O)O)C(=O)N[C@H](C(=O)N[C@@H](CO)C(=O)N[C@@H](CCC(N)=O)C(=O)N[C@H](C(=O)N[C@@H](CCC(N)=O)C(=O)N[C@@H](CC(=O)O)C(=O)N1CCC[C@H]1C(=O)N[C@@H](CC(N)=O)C(=O)N[C@@H](CC(=O)O)C(=O)N[C@@H](CCC(N)=O)C(=O)N[C@@H](Cc1ccc(O)cc1)C(=O)N[C@@H](CCC(=O)O)C(=O)N1CCC[C@H]1C(=O)N[C@@H](Cc1ccccc1)C(=O)O)C(C)C)C(C)C [copper-64 labelled]
tissue uptake (GZMB-/- mice, CT26 tumour-bearing, liver; 2 h, checkpoint inhibitor-treated): 8.35 ± 1.6 %ID/g

Repeated from above:
CC(=O)NCCCC[C@@H]1NC(=O)[C@H](Cc2c[nH]c3c(C)cccc23)NC(=O)[C@H]([C@@H](C)O)NC(=O)[C@H](CC(N)=O)NC(=O)[C@@H](NC(C)=O)C(C)(C)SSC(C)(C)[C@@H](C(=O)N[C@@H](Cc2ccc(OCCN)cc2)C(=O)N[C@@H](Cc2ccc3ccccc3c2)C(=O)NC2(C(=O)N[C@@H](CCC(=O)O)C(=O)N[C@@H](CC(N)=O)C(=O)N[C@@H](Cc3cccnc3)C(=O)N(C)CC(N)=O)CCOCC2)NC1=O
unbound fraction (equilibrium dialysis; albumin plus glycoprotein; 0.1 µM, albumin 4%, glycoprotein 0.07%): 74.2 ± 3.2%

Cc1ccc(N2CC3CCC(C2)N3C)cc1C(=O)N[C@H](C)c1cc(-c2cnn(C)c2)nc2ccccc12
unbound fraction (mouse, plasma): 5.8% and 5.5%
